Experimental data from different studies.
Lines come from different studies, so protocols differ.

Compound	organism	assay	system	setting	MIC
CC[C@@H](C)[C@@H](NC(=O)[C@@H](C)N)C(=O)N[C@H](CCCCN)C(=O)N[C@@H](C(=O)N[C@H](CCCNC(=N)N)C(=O)N[C@H](CCCCN)C(=O)N[C@H](CC(C)C)C(=O)N[C@H](Cc1ccccc1)C(=O)N[C@H](CCCCN)C(=O)N[C@H](CCCCN)C(=O)N[C@H](CC(C)C)C(=O)N[C@H](CC(C)C)C(=O)N[C@H](CCCNC(=N)N)C(N)=O)[C@H](C)CC	Escherichia coli	broth microdilution checkerboard	ATCC 25922, LB medium	added: ampicillin	3.12 µg/mL
COc1cc(Cn2ccc([C@H](C)[C@](O)(Cn3cnnn3)c3ccc(F)cc3F)n2)ccc1F	Aspergillus fumigatus	growth, broth microdilution	7544	48 h, 35 °C, ≥50% inhibition	> 64 µg/mL
CC(C)=CCc1cc([C@@H]2CC(=O)c3c(O)cc(O)c(CC=C(C)C)c3O2)cc(CC=C(C)C)c1O	Shigella flexneri		DMST 4423		128 µg/mL
C[C@@H](c1ccn(Cc2ccc(F)c(C(F)(F)F)c2)n1)[C@](O)(Cn1cnnn1)c1ccc(F)cc1F	Aspergillus fumigatus	growth, broth microdilution	7544	48 h, 35 °C, ≥50% inhibition	> 64 µg/mL
Oc1c(Cl)cc(Cl)c2cccnc12	Morganella morganii	microbial growth, agar dilution			150 µM
O=[N+]([O-])c1ccc2c(c1)C=[N+]1N3C(=[O+][Cu-2]1([Cl])[O]2)c1ccccc1NC3c1cc([N+](=O)[O-])ccc1O (stereo not drawn)	Mycolicibacterium smegmatis	broth microdilution	ATCC 700084	3 days	64 µg/mL
C[C@@H](c1ccn(Cc2c(F)ccc(F)c2F)n1)[C@](O)(Cn1cnnn1)c1ccc(F)cc1F	Aspergillus fumigatus	growth, broth microdilution	7544	48 h, 35 °C, ≥50% inhibition	> 64 µg/mL
CC(=O)N[C@H](CCCCN)C(=O)N[C@H](CC(C)C)C(=O)N[C@H](CCCCN)C(=O)N[C@H](CO)C(=O)N[C@H](CC(C)C)C(=O)N[C@H](CC(C)C)C(=O)N[C@H](CCCCN)C(=O)N[C@@H](C(=O)N[C@H](CC(C)C)C(=O)N[C@H](CO)C(=O)N[C@H](CCCCN)C(=O)N[C@H](C)C(=O)N[C@H](CCCCN)C(=O)N[C@H](CCCCN)C(=O)N[C@H](CCCCN)C(=O)N[C@H](CCCCN)C(=O)N[C@H](CC(C)C)C(=O)N[C@H](CCCCN)C(=O)N[C@@H](C(=O)N[C@H](CC(C)C)C(=O)N[C@H](CC(C)C)C(=O)N[C@H](CCCCN)C(=O)N[C@H](C)C(=O)N[C@H](CC(C)C)C(=O)N[C@H](CO)C(=O)N[C@H](CCCCN)C(N)=O)[C@H](C)O)[C@H](C)O	Acinetobacter baumannii		964, Mueller-Hinton broth	24 h, 37 °C	0.7 µM
C[C@@H](c1ccn(Cc2c(F)cccc2F)n1)[C@](O)(Cn1cnnn1)c1ccc(F)cc1F	Aspergillus fumigatus	growth, broth microdilution	7544	48 h, 35 °C, ≥50% inhibition	> 64 µg/mL
CO[C@@H](C(N)=O)[C@H](NC(=O)c1ccc(NC(=O)c2ccc([N+](=O)[O-])cc2)cc1)C(=O)Nc1ccc(C(=O)Nc2ccc(C(=O)Nc3ccc(C(=O)O)cc3)c(O)c2OC(C)C)cc1	Serratia marcescens	microbial growth	DSM30121		> 64 µg/mL
Oc1c(Br)ccc2cccnc12	Serratia marcescens	microbial growth, agar dilution	ATCC8100		35.7 µM
Cc1ccc(Cn2ccc([C@H](C)[C@](O)(Cn3cnnn3)c3ccc(F)cc3F)n2)cc1	Aspergillus fumigatus	growth, broth microdilution	7544	48 h, 35 °C, ≥50% inhibition	> 64 µg/mL
Oc1c(Br)c(Cl)c(Br)c2nc3c(C(F)(F)F)cc(C(F)(F)F)cc3nc12	Staphylococcus epidermidis	microbial growth, broth dilution	12228		1.56 µM
N#Cc1ccc2cccc(O)c2n1	Serratia marcescens	microbial growth, agar dilution	ATCC8100		> 1500 µM
Oc1c(Br)cc(Br)c2nc3c(C(F)(F)F)cc(C(F)(F)F)cc3nc12	Staphylococcus epidermidis	broth microdilution	MRSE 35984	single representative determination	0.1 µM
CC[C@@H](C)[C@@H](NC(=O)[C@@H](C)NC(=O)[C@@H](CCCCN)NC(=O)[C@@H](CC(C)C)NC(=O)[C@@H](CC(C)C)NC(=O)[C@H](NC(=O)[C@@H](CCCCN)NC(=O)[C@@H](CC(C)C)NC(=O)[C@@H](C)NC(=O)[C@@H](CCCCN)NC(=O)[C@@H](CCCCN)NC(=O)[C@@H](CCCCN)NC(=O)[C@@H](C)NC(=O)[C@@H](CCCCN)NC(=O)[C@@H](CO)NC(=O)[C@@H](Cc1ccccc1)NC(=O)[C@H](NC(=O)[C@@H](CCCCN)NC(=O)[C@@H](CC(C)C)NC(=O)[C@@H](Cc1ccccc1)NC(=O)[C@@H](CO)NC(=O)[C@@H](CCCCN)NC(=O)[C@@H](Cc1c[nH]c2ccccc12)NC(=O)[C@@H](CCCCN)NC(C)=O)[C@H](C)O)[C@H](C)O)C(=O)N[C@H](CO)C(=O)N[C@H](CCCCN)C(N)=O	Acinetobacter baumannii		884, Mueller-Hinton broth	24 h, 37 °C	0.7 µM
Oc1c(Br)cc(Br)c2nc3cc(Cc4ccccc4)ccc3nc12	Staphylococcus epidermidis	microbial growth, broth dilution	12228		0.1 µM

Compound	organism	assay	system	setting	MIC
CCCn1ccc([C@H](C)[C@](O)(Cn2cnnn2)c2ccc(F)cc2F)n1	Aspergillus fumigatus	growth, broth microdilution	7544	48 h, 35 °C, ≥50% inhibition	> 64 µg/mL
Oc1c(Br)cc(Br)c2nc3cc(C(F)(F)F)ccc3nc12	Staphylococcus epidermidis	broth microdilution	MRSE 35984	single representative determination	0.1 µM
O=c1c2ccccc2sn1-c1cc(Br)cc(Br)c1	Candida parapsilosis	growth, broth dilution	ATCC 22019	MIC-0	6.25 µg/mL
CCCCCCCCCC1CC2CCC3CC(CCCCCCCCC)NC(=N1)N23 (stereo not drawn)	Aspergillus fumigatus	fungal growth	ATCC 204305		12 µM
CC(C)=CCc1cc([C@@H]2CC(=O)c3ccc(O)c(CC=C(C)C)c3O2)c(O)c(CC=C(C)C)c1O	Shigella flexneri		DMST 4423		inactive
CC[C@@H](C)[C@@H](NC(=O)[C@@H](C)NC(=O)[C@@H](CCCCN)NC(=O)[C@@H](CC(C)C)NC(=O)[C@@H](C)NC(=O)[C@H](NC(=O)[C@@H](CCCCN)NC(=O)[C@@H](CC(C)C)NC(=O)[C@H](NC(=O)[C@@H](CCCCN)NC(=O)[C@@H](CCCCN)NC(=O)[C@@H](CCCCN)NC(=O)[C@@H](C)NC(=O)[C@@H](CCCCN)NC(=O)[C@@H](CO)NC(=O)[C@@H](Cc1ccccc1)NC(=O)[C@H](NC(=O)[C@@H](CCCCN)NC(=O)[C@@H](CC(C)C)NC(=O)[C@@H](Cc1ccccc1)NC(=O)[C@@H](CO)NC(=O)[C@@H](CCCCN)NC(=O)[C@@H](Cc1c[nH]c2ccccc12)NC(=O)[C@@H](CCCCN)NC(C)=O)[C@H](C)O)C(C)C)[C@H](C)O)C(=O)N[C@H](CO)C(=O)N[C@H](CCCCN)C(N)=O	Acinetobacter baumannii		1012, Mueller-Hinton broth	24 h, 37 °C	1.3 µM
COc1ccc2c(c1CC=C(C)C)O[C@H]1c3cc4c(cc3OC[C@@]21O)OC(C)(C)C=C4	Shigella flexneri		DMST 4423		inactive
CC[C@@H](C)[C@@H](NC(=O)[C@@H](C)NC(=O)[C@@H](CCCCN)NC(=O)[C@@H](CC(C)C)NC(=O)[C@@H](C)NC(=O)[C@H](NC(=O)[C@@H](Cc1c[nH]cn1)NC(=O)[C@@H](CC(C)C)NC(=O)[C@H](NC(=O)[C@H](NC(=O)[C@@H](CCCCN)NC(=O)[C@H](NC(=O)[C@@H](C)NC(=O)[C@@H](CO)NC(=O)[C@@H](CCCCN)NC(=O)[C@@H](Cc1ccccc1)NC(=O)[C@H](NC(=O)[C@@H](CCCCN)NC(=O)[C@@H](CC(C)C)NC(=O)[C@@H](Cc1ccccc1)NC(=O)[C@@H](CO)NC(=O)[C@@H](CCCCN)NC(=O)[C@@H](Cc1c[nH]c2ccccc12)NC(=O)[C@@H](CCCCN)NC(C)=O)[C@H](C)O)C(C)C)[C@H](C)O)C(C)C)[C@H](C)O)C(=O)N[C@H](CO)C(=O)N[C@H](CO)C(N)=O	Acinetobacter baumannii		689, Mueller-Hinton broth	24 h, 37 °C	0.7 µM
COc1c(CC=C(C)C)c(O)cc2c1-c1oc3c(CC=C(C)C)c(O)ccc3c1CO2	Shigella flexneri		DMST 4423		inactive
Oc1c(Br)cc(Br)c2nc3cc(I)ccc3nc12	Staphylococcus epidermidis	broth microdilution	MRSE 35984		0.15 µM
CC(C)c1ccc(Cn2ccc([C@H](C)[C@](O)(Cn3cnnn3)c3ccc(F)cc3F)n2)cc1	Aspergillus fumigatus	growth, broth microdilution	7544	48 h, 35 °C, ≥50% inhibition	> 64 µg/mL
Oc1c(Br)cc(Br)c2nc3cc(Cl)ccc3nc12	Staphylococcus epidermidis	broth microdilution	MRSE 35984		0.15 µM
COc1ccc2c(oc3c4ccc(O)cc4oc(=O)c23)c1CC=C(C)C	Shigella flexneri		DMST 4423		inactive
CC[C@@H](C)[C@@H](NC(=O)[C@@H](C)NC(=O)[C@@H](CCCCN)NC(=O)[C@@H](CC(C)C)NC(=O)[C@@H](CC(C)C)NC(=O)[C@H](NC(=O)[C@@H](CCCCN)NC(=O)[C@@H](CC(C)C)NC(=O)[C@@H](CCCCN)NC(=O)[C@@H](CCCCN)NC(=O)[C@@H](CCCCN)NC(=O)[C@@H](CCCCN)NC(=O)[C@@H](C)NC(=O)[C@@H](CCCCN)NC(=O)[C@@H](CO)NC(=O)[C@@H](Cc1ccccc1)NC(=O)[C@H](NC(=O)[C@@H](CCCCN)NC(=O)[C@@H](CC(C)C)NC(=O)[C@@H](Cc1ccccc1)NC(=O)[C@@H](CO)NC(=O)[C@@H](CCCCN)NC(=O)[C@@H](Cc1c[nH]c2ccccc12)NC(=O)[C@@H](CCCCN)NC(C)=O)[C@H](C)O)[C@H](C)O)C(=O)N[C@H](CO)C(=O)N[C@H](CCCCN)C(N)=O	Acinetobacter baumannii	broth microdilution	ATCC 19606	24 h, 37 °C	0.6 µM
C[C@@H](c1ccn(Cc2cccc(C(F)(F)F)c2)n1)[C@](O)(Cn1cnnn1)c1ccc(F)cc1F	Aspergillus fumigatus	growth, broth microdilution	7544	48 h, 35 °C, ≥50% inhibition	> 64 µg/mL
COc1c2c(cc3c1[C@@H]1Oc4c(ccc(O)c4CC=C(C)C)[C@@H]1CO3)OC(C)(C)C=C2	Shigella flexneri		DMST 4423		inactive

Excerpt of the above:
Compound	organism	assay	system	setting	MIC
CC[C@@H](C)[C@@H](NC(=O)[C@@H](C)NC(=O)[C@@H](CCCCN)NC(=O)[C@@H](CC(C)C)NC(=O)[C@@H](C)NC(=O)[C@H](NC(=O)[C@@H](CCCCN)NC(=O)[C@@H](CC(C)C)NC(=O)[C@H](NC(=O)[C@@H](CCCCN)NC(=O)[C@@H](CCCCN)NC(=O)[C@@H](CCCCN)NC(=O)[C@@H](C)NC(=O)[C@@H](CCCCN)NC(=O)[C@@H](CO)NC(=O)[C@@H](Cc1ccccc1)NC(=O)[C@H](NC(=O)[C@@H](CCCCN)NC(=O)[C@@H](CC(C)C)NC(=O)[C@@H](Cc1ccccc1)NC(=O)[C@@H](CO)NC(=O)[C@@H](CCCCN)NC(=O)[C@@H](Cc1c[nH]c2ccccc12)NC(=O)[C@@H](CCCCN)NC(C)=O)[C@H](C)O)C(C)C)[C@H](C)O)C(=O)N[C@H](CO)C(=O)N[C@H](CCCCN)C(N)=O	Acinetobacter baumannii		1012, Mueller-Hinton broth	24 h, 37 °C	1.3 µM
O=[N+]([O-])c1ccc2c(c1)C=[N+]1N3C(=[O+][Cu-2]1([Cl])[O]2)c1ccccc1NC3c1cc([N+](=O)[O-])ccc1O (stereo not drawn)	Mycolicibacterium smegmatis	broth microdilution	ATCC 700084	3 days	64 µg/mL
CC[C@@H](C)[C@@H](NC(=O)[C@@H](C)NC(=O)[C@@H](CCCCN)NC(=O)[C@@H](CC(C)C)NC(=O)[C@@H](CC(C)C)NC(=O)[C@H](NC(=O)[C@@H](CCCCN)NC(=O)[C@@H](CC(C)C)NC(=O)[C@@H](CCCCN)NC(=O)[C@@H](CCCCN)NC(=O)[C@@H](CCCCN)NC(=O)[C@@H](CCCCN)NC(=O)[C@@H](C)NC(=O)[C@@H](CCCCN)NC(=O)[C@@H](CO)NC(=O)[C@@H](Cc1ccccc1)NC(=O)[C@H](NC(=O)[C@@H](CCCCN)NC(=O)[C@@H](CC(C)C)NC(=O)[C@@H](Cc1ccccc1)NC(=O)[C@@H](CO)NC(=O)[C@@H](CCCCN)NC(=O)[C@@H](Cc1c[nH]c2ccccc12)NC(=O)[C@@H](CCCCN)NC(C)=O)[C@H](C)O)[C@H](C)O)C(=O)N[C@H](CO)C(=O)N[C@H](CCCCN)C(N)=O	Acinetobacter baumannii	broth microdilution	ATCC 19606	24 h, 37 °C	0.6 µM
